Experimental data collected from several papers.
Each line is one published result; not all experiments were run side by side. ± gives the spread as reported.
Tumor necrosis factor receptor superfamily member 1A extracellular domain: Tumor necrosis factor receptor superfamily member 1A, extracellular domain (Homo sapiens, UniProt P19438)
UniProt P19438, sequence (whole entry, looked up): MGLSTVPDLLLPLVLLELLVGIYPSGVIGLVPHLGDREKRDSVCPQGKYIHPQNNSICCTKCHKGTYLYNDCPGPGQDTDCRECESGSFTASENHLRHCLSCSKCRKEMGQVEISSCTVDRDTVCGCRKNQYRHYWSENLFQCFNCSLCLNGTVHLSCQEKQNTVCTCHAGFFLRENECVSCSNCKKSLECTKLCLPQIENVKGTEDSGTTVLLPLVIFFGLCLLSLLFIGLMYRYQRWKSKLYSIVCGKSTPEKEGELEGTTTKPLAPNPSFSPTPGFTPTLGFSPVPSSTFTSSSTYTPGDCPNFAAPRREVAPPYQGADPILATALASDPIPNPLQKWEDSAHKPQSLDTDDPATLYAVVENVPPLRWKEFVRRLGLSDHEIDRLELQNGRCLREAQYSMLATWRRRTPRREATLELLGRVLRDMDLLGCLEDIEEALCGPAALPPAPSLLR
GSPT1/CRBN with cereblon: GSPT1/CRBN, with cereblon (Homo sapiens, UniProt P15170+Q96SW2)
UniProt P15170, sequence (whole entry, looked up): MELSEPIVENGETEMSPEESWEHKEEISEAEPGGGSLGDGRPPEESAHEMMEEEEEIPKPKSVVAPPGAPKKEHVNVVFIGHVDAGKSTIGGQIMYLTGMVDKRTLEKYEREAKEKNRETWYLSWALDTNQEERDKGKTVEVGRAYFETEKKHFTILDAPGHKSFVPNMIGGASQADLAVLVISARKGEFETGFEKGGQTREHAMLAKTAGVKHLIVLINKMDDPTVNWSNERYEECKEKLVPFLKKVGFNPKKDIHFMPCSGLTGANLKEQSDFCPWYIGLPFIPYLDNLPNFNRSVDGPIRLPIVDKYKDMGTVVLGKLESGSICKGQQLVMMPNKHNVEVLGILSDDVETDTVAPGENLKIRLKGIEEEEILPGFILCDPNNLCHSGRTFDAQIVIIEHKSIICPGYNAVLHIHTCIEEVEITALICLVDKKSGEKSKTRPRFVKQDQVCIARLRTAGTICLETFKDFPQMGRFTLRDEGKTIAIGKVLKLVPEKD
UniProt Q96SW2, sequence (whole entry, looked up): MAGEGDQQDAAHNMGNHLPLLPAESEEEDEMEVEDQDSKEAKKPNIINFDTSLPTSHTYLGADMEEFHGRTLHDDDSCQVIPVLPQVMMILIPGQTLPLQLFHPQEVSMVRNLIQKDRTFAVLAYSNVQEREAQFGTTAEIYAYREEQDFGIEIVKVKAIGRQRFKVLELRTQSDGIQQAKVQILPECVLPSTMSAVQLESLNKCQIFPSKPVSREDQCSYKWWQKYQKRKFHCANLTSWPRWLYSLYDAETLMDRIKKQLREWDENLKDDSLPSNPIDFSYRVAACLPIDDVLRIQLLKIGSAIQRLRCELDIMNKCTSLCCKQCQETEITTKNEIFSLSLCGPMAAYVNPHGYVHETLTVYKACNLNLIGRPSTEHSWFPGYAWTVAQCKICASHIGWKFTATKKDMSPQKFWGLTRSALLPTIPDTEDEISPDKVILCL
USP5 ZnF-UBD domain: Ubiquitin carboxyl-terminal hydrolase 5, ZnF-UBD domain (USP5, Homo sapiens, UniProt P45974)
UniProt P45974, sequence (whole entry, looked up): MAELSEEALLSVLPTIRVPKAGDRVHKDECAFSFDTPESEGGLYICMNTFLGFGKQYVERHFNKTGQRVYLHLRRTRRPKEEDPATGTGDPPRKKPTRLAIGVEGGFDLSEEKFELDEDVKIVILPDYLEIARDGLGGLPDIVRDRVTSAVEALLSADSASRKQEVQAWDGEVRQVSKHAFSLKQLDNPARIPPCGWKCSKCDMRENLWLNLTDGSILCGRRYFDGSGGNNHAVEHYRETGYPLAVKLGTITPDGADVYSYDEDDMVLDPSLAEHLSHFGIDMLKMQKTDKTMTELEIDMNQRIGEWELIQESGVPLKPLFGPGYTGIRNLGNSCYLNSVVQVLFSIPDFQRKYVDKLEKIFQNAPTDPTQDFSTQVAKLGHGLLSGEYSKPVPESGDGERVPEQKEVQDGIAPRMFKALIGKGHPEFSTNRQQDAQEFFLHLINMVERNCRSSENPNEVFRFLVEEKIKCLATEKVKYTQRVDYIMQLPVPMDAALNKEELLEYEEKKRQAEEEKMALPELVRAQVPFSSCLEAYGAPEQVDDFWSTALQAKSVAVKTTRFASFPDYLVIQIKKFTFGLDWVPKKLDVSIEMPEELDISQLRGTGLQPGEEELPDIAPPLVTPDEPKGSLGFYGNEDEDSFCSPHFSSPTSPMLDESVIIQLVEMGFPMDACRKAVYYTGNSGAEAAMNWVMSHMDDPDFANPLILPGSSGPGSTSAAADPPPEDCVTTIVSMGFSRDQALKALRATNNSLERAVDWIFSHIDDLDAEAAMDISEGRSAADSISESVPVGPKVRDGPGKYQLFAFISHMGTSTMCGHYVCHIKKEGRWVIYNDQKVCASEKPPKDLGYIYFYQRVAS
HDAC11: Histone deacetylase 11 (HDAC11, Homo sapiens, UniProt Q96DB2)
UniProt Q96DB2, sequence (whole entry, looked up): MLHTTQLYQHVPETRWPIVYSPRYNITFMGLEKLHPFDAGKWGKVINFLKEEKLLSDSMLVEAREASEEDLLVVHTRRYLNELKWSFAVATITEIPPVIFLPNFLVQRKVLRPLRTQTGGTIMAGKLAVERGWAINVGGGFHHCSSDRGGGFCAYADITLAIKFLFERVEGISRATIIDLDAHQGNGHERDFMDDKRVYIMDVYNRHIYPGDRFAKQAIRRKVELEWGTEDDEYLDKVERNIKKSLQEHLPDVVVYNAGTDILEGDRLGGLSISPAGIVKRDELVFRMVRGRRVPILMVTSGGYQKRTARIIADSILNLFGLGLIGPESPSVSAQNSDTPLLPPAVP
GATD3: Glutamine amidotransferase-like class 1 domain-containing protein 3, mitochondrial (GATD3, Homo sapiens, UniProt P0DPI2)
UniProt P0DPI2, sequence (whole entry, looked up): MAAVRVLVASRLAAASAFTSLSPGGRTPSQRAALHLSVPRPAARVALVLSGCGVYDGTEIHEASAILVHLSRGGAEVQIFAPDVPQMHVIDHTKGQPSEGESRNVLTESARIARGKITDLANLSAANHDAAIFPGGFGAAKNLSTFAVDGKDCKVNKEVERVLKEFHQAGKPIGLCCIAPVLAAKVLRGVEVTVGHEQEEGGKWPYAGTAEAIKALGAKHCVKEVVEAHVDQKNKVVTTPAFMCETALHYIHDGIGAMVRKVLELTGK
PLAU: Urokinase-type plasminogen activator (PLAU, Homo sapiens, UniProt P00749)
CSNK1A1/CRBN: Cereblon/Casein kinase I alpha (CSNK1A1/CRBN, Homo sapiens, UniProt P48729+Q96SW2)
UniProt P48729, sequence (whole entry, looked up): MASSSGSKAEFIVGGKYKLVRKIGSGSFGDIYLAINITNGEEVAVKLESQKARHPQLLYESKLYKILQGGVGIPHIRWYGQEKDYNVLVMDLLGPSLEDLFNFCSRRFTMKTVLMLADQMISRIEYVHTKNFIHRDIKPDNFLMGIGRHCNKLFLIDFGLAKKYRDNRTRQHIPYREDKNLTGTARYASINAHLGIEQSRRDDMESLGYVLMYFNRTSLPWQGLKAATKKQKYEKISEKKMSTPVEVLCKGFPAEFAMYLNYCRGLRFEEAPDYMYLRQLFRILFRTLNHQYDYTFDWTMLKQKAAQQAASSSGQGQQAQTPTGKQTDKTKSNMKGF
UniProt P49761, sequence (whole entry, looked up): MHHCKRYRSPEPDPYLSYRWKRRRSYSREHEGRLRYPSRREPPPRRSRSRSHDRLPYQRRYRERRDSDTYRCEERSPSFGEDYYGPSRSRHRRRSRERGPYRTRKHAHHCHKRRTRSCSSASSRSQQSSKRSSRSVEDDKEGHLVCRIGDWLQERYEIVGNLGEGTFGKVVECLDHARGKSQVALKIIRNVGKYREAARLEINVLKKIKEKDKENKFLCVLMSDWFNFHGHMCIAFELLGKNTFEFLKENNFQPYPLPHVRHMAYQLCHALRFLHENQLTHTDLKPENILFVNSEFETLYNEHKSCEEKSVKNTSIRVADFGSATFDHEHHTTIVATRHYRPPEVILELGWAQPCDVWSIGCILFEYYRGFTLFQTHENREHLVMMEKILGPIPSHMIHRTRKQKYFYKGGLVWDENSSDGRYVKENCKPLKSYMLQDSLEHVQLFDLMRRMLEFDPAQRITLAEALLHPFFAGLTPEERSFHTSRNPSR
UniProt P30994, sequence (whole entry, looked up): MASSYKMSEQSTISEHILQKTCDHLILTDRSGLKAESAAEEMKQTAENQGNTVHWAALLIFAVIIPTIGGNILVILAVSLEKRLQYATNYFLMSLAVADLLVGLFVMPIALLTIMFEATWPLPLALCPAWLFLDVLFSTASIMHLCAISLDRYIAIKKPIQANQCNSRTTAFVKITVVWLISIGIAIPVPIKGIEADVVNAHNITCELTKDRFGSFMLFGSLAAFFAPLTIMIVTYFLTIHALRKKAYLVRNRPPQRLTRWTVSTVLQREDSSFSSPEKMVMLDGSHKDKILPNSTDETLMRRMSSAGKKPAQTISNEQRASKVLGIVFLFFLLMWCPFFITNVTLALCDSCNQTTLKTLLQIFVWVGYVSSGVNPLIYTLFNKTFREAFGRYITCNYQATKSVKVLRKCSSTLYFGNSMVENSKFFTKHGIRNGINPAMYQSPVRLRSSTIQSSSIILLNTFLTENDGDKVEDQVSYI
UniProt Q07817, sequence (whole entry, looked up): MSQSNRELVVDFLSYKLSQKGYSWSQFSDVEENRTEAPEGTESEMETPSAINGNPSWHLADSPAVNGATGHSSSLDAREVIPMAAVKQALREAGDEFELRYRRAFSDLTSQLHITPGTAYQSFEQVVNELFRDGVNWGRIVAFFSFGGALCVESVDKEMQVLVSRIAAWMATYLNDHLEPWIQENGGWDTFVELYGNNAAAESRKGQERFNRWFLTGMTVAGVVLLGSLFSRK
UniProt P05177, sequence (whole entry, looked up): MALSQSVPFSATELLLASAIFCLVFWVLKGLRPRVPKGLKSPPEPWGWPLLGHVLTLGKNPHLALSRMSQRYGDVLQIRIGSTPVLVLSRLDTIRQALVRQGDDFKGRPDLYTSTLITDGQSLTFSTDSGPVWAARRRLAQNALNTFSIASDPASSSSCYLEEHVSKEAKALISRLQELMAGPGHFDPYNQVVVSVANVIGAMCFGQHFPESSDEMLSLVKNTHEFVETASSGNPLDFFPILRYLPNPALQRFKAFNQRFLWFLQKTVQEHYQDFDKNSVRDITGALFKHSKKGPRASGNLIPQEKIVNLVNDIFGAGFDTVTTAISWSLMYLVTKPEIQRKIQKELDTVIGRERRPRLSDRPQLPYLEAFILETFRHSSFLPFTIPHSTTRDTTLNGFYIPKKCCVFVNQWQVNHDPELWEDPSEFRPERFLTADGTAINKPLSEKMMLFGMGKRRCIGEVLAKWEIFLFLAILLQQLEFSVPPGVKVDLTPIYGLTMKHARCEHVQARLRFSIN

SMILES | target or system | test | test system | setting | how to read | endpoint | value
O=C(O)c1ccc(-c2ccc(F)cc2)cn1 | Tumor necrosis factor receptor superfamily member 1A extracellular domain | binding, SPR OneStep injection |  | fragment screen |  | Kd | ≤ 1500 µM
N#Cc1cccc(C(=O)Nc2ccc3c(c2)CN(C2CCC(=O)NC2=O)C3=O)c1 (stereo not drawn) | GSPT1/CRBN with cereblon | degrader, HiBiT endpoint | HEK293 GSPT1-HiBiT | 24 h |  | DC50 | > 10 µM
Cc1nc2ccc(Cl)cc2c(=O)n1NC1=NC(=O)CS1 | collagenase | enzyme activity, inhibitor |  | with: casein substrate |  | IC50 | 24.5 ± 0.71 µg/mL
O=C(O)CCc1cnccn1 | USP5 ZnF-UBD domain |  |  |  |  | Kd | > 1000 µM
CC(C)c1ccc(OS(=O)(=O)Oc2cccc(C(=O)NO)c2)cc1 | HDAC11 |  |  |  |  | Ki | 0.592 µM
CC(C)C[C@H](NC(=O)C[C@H](O)[C@H](CC(C)C)NC(=O)[C@H](Cc1c[nH]cn1)NC(=O)CNC(=O)[C@@H](NC(=O)[C@H](C)NC(=O)[C@H](Cc1c[nH]c2ccccc12)NC(=O)[C@H](CCC(N)=O)NC(=O)[C@@H](Cc1ccccc1)NC(=O)COCCOCCNC(=O)CCC(C(=O)O)N1CCN(CC(=O)O)CCN(CC(=O)O)CC1)C(C)C)C(N)=O (stereo partly drawn) [lutetium-177 labelled] |  |  | female BALB/c nu/nu mice, liver | intravenous, 50 pmol, 24 h |  | tissue uptake | 0.12 ± 0.03 %ID/g
Cc1nc2ccc(Br)cc2c(=O)n1/N=C/c1ccc(C(=O)O)cc1 | collagenase | enzyme activity, inhibitor |  | with: casein substrate |  | IC50 | 24.9 ± 1.47 µg/mL
CSc1ccccc1C(=O)NCCn1cc(C(=O)NCc2cccc(C)n2)c(=O)c2cc3c(cc21)OCO3 | Cytochrome P450 1A2 (CYP1A2, Homo sapiens, UniProt P05177) | enzyme activity, inhibitor | human liver microsomes | 20 min, 30 min NADPH preincubation, with: phenacetin 50 µM |  | IC50 | > 100 µM
O=C(O)CCC(=O)N1CCc2ccccc21 | USP5 ZnF-UBD domain |  |  |  |  | Kd | > 1000 µM
O=C1CCC(N2Cc3cc(Nc4nc5ccccc5o4)ccc3C2=O)C(=O)N1 (stereo not drawn) | GSPT1/CRBN with cereblon | degrader, HiBiT endpoint | HEK293 GSPT1-HiBiT | 24 h |  | DC50 | > 10 µM
O=C(O)CNC(=O)Cc1ccccc1 |  |  | ventricular cardiomyocytes, C57BL/6 mouse | dose not given, 0.316 s |  | sarcomere length | 1.72 µm
CC[C@@H]1[C@H](F)C(=O)N[C@@H]1COc1nccc2cc(C(N)=O)c(OC)cc12 | Dual specificity protein kinase CLK3 (CLK3, Homo sapiens, UniProt P49761) | kinase activity, inhibitor, ActivX ATP-site probe profiling | THP-1 cell lysate | ATP loop site |  | IC50 | > 5 µM
Nc1ccccc1NC(=O)c1ccc(CNc2nccc(-c3cccnc3)n2)cc1 | GATD3 | inhibitor, competition pulldown | SW620 and MV4-11 lysate | 1 h |  | Kd | > 30.2 µM
CCc1ccc(/C=N/n2c(C)nc3ccc(C)cc3c2=O)s1 | collagenase | enzyme activity, inhibitor |  | with: casein substrate |  | IC50 | 47.7 ± 1.59 µg/mL
CC(C)C1c2cc(C3CC3c3cc(/C=C/C4CC4)c4cc(C(=N)N)ccc4c3)ccc2CCN1C (stereo not drawn) | PLAU | inhibitor |  | pH 7.4 |  | Ki | 0.009 µM
OC(CCN1CCCCC1)(c1ccccc1)C1CC2C=CC1C2 (stereo not drawn) |  | resting-state EEG | healthy elderly humans | oral, 2 mg, eyes open, LS mean | relative to: baseline | change in EEG Beta3-power Pz-O1 | 11.3%
COc1ccc2cc(/C=N/n3c(C)nc4ccc(Br)cc4c3=O)ccc2c1 | collagenase | enzyme activity, inhibitor |  | with: casein substrate |  | IC50 | 43.6 ± 3.01 µg/mL
O=C(NO)c1cncc(OS(=O)(=O)Oc2ccc(C(F)(F)F)cc2)c1 | HDAC11 |  |  |  |  | Ki | 2.19 µM
O=C1CCC(N2Cc3cc(Nc4noc5ccccc45)ccc3C2=O)C(=O)N1 (stereo not drawn) | GSPT1/CRBN with cereblon | degrader, HiBiT endpoint | HEK293 GSPT1-HiBiT | 24 h |  | DC50 | > 10 µM
N#C[C@@]12C[C@@H]1[C@@H](n1cnc3c(NC4CCCC4)nc(I)nc31)[C@H](O)[C@@H]2O | 5-hydroxytryptamine receptor 2B (Rattus norvegicus, UniProt P30994) | antagonist, Gq dissociation BRET |  | rat receptor |  | Kb | 0.0672 µM
Cc1ccccc1C(=O)Nc1ccc2c(c1)CN(C1CCC(=O)NC1=O)C2=O (stereo not drawn) | GSPT1/CRBN with cereblon | degrader, HiBiT endpoint | HEK293 GSPT1-HiBiT | 24 h |  | DC50 | > 10 µM
CCCCN(Cc1ccc(C(=O)NO)cc1)C(=O)Nc1ccccc1 | GATD3 | inhibitor, competition pulldown | SW620 and MV4-11 lysate | 1 h |  | Kd | > 30.2 µM
O=C(O)Cc1cccnc1 | USP5 ZnF-UBD domain |  |  |  |  | Kd | > 1000 µM
Cc1c(-c2ccc(N3CCc4cccc(C(=O)Nc5nc6ccccc6s5)c4C3)nc2C(=O)NCCOCCOCCOCCNc2cccc3c2C(=O)N(C2CCC(=O)NC2=O)C3=O)cnn1CC12CC3CC(CC(C3)C1)C2 (stereo not drawn) | Bcl-2-like protein 1 (BCL2L1, Homo sapiens, UniProt Q07817) | degrader, western blot | MOLT-4 | 16 h |  | DC50 | 0.00118 µM

SMILES | target or system | test | test system | setting | how to read | endpoint | value
N=C(N)c1ccc2cc(/C=C/CCc3cccnc3)cc(Br)c2c1 | PLAU | inhibitor |  | pH 7.4 |  | Ki | 3.08 µM
Cn1cc(-c2ccc(-c3cncc(Cl)c3N3CCC4(CCNC4=O)CC3)cc2)cn1 | COLO 205 | gene expression, microarray, refers to: NFATC2 mRNA |  | concentration not given, 2 h | relative to: untreated cells | log2 fold change | 2.92
CS(=O)(=O)NC(=O)c1cc(-c2ccc3[nH]ccc3c2)ccn1 | Tumor necrosis factor receptor superfamily member 1A extracellular domain | binding, SPR OneStep |  |  |  | Kd | 502 ± 60 µM
O=C(O)CSc1nnc(NC(=O)COc2ccccc2)s1 | USP5 ZnF-UBD domain |  |  |  |  | Kd | 315 µM
N#Cc1ccc2c(c1)[C@H]1CCCN(C(=O)c3ccc4[nH]cnc4c3)[C@H]1C2 |  |  | human, Phase II trial | oral, 80 mg once daily, day 28, adjusted mean, SE |  | systolic blood pressure change | -2.8 mmHg
CC(C)C[C@H](NC(=O)C[C@H](O)[C@H](CC(C)C)NC(=O)[C@H](Cc1c[nH]cn1)NC(=O)CNC(=O)[C@@H](NC(=O)[C@H](C)NC(=O)[C@H](Cc1c[nH]c2ccccc12)NC(=O)[C@H](CCC(N)=O)NC(=O)[C@@H](Cc1ccccc1)NC(=O)COCCOCCNC(=O)CCC(C(=O)O)N1CCN(CC(=O)O)CCN(CC(=O)O)CCN(CC(=O)O)CC1)C(C)C)C(N)=O (stereo partly drawn) [lutetium-177 labelled] |  |  | female BALB/c nu/nu mice, liver | intravenous, 100 pmol, 2 h, with: PA 300 µg |  | tissue uptake | 0.21 ± 0.08 %ID/g
Cc1cc(OS(=O)(=O)Oc2ccc(C(C)C)cc2)cc(C(=O)NO)c1 | HDAC11 |  |  |  |  | Ki | 3.84 µM
CC[C@H](CO)N(CCN(N=O)[C@H](CC)CO)N=O | Escherichia coli | mutagenicity, Ames plate incorporation | WP2 uvrA pKM101 | 5000 µg/plate, without S9, methanol |  | revertant colonies per plate | 135 ± 26
N#CC(CCOc1cccc2ccc(N)nc12)(c1ccccc1)c1ccccc1 | PLAU | inhibitor |  | pH 7.4 |  | Ki | > 40 µM
NC(=O)[C@H]1CCCN1C(=O)CCC(=O)O | USP5 ZnF-UBD domain |  |  |  |  | Kd | 265 µM
Cc1cccc(C(=O)Nc2ccc3c(c2)CN(C2CCC(=O)NC2=O)C3=O)c1 (stereo not drawn) | GSPT1/CRBN with cereblon | degrader, HiBiT endpoint | HEK293 GSPT1-HiBiT | 24 h |  | DC50 | > 10 µM
NCc1cc2c(cc1F)C(=O)N(C1CCC(=O)NC1=O)C2 (stereo not drawn) | CSNK1A1/CRBN | degrader, Western blot | Hep3B | 6 h |  | DC50 | > 1 µM
CC(C)[C@H](NC(=O)[C@H](Cc1ccc(O)cc1)NC(=O)[C@H](Cc1ccc(O)cc1)NC(=O)[C@@H]1CCCN1C(=O)[C@H](CCC(=O)O)NC(=O)[C@H](CCC(=O)O)NC(=O)[C@H](Cc1c[nH]c2ccccc12)NC(=O)[C@@H]1CCCN1C(=O)[C@@H](NC(=O)[C@H](CCC(N)=O)NC(=O)c1ccc2c(c1)C(=O)OC21c2ccc(O)cc2Oc2cc(O)ccc21)C(C)C)C(=O)N[C@H](C(=O)N[C@@H](CCCCN)C(=O)N[C@@H](CCCCN)C(=O)N[C@@H](CO)C(=O)N[C@@H](CO)C(=O)NCC(=O)NCC(N)=O)C(C)C |  |  | human, plasma | intravenous infusion, 200 mg, 0.08333 h |  | plasma concentration | 1230 ng/mL
Cn1nc(Nc2ccc3c(c2)CN(C2CCC(=O)NC2=O)C3=O)c2ccccc21 (stereo not drawn) | CSNK1A1/CRBN | degrader, HiBiT endpoint | human cells | 24 h |  | DC50 | 0.004 µM
NS(=O)(=O)c1ccc(NCC(=O)O)cc1 | USP5 ZnF-UBD domain |  |  |  |  | Kd | > 1000 µM
CC(C)CN(CC(C)C)C(=O)c1ccc2ccc(N)nc2c1 | PLAU | inhibitor |  | pH 7.4 |  | Ki | > 100 µM
Cc1ccc(C(=O)O)cc1S(=O)(=O)Nc1cccc(C(=O)CCC(=O)O)c1 | USP5 ZnF-UBD domain |  |  |  |  | Kd | > 1000 µM
N=C(N)c1ccc2cc(C#Cc3cccc(OC4CCCC4)c3)ccc2c1 | PLAU | inhibitor |  | pH 7.4 |  | Ki | 0.665 µM
CCOc1c([C@H](C)n2nc(C)c3c(N)ncnc32)cc(Cl)c(F)c1[C@@H]1CNC(=O)C1 |  |  | patients, monotherapy | oral, 10 mg once daily, cycle 1 day 15 |  | half-life geometric mean | 9.78 h
Cc1nc2ccc(Cl)cc2c(=O)n1NC(=O)CCl | collagenase | enzyme activity, inhibitor |  | with: casein substrate |  | IC50 | 12.5 ± 2.12 µg/mL
CN1CCC(CNc2ccc3ncc(-c4cccc(OC(F)(F)F)c4)n3n2)CC1 | Sodium channel protein type 5 subunit alpha (SCN5A, Homo sapiens, UniProt Q14524) | membrane potential, blocker |  | 30 min, top concentration 10 µM |  | IC50 | 9.02 µM
N=C(N)NC(=O)c1ccc(Cl)c(S(N)(=O)=O)c1 | PLAU | inhibitor |  | pH 7.4 |  | Ki | > 100 µM
O=C(O)CNC(=O)c1ccc(S(=O)(=O)N2CCC(n3c(=O)oc4ccccc43)CC2)cc1 | USP5 ZnF-UBD domain |  |  |  |  | Kd | 127 µM
C[C@H]1C[C@H]2CSC(N)=N[C@@]2(c2nc(NC(=O)c3ccc(OC(F)F)cn3)cs2)CO1 |  | refers to: total Aβ | healthy adults, plasma | 275 mg once daily, day 14 | relative to: placebo | percent change from baseline | -69%

Excerpt of the above:
SMILES | target or system | test | test system | setting | how to read | endpoint | value
CC[C@@H]1[C@H](F)C(=O)N[C@@H]1COc1nccc2cc(C(N)=O)c(OC)cc12 | Dual specificity protein kinase CLK3 (CLK3, Homo sapiens, UniProt P49761) | kinase activity, inhibitor, ActivX ATP-site probe profiling | THP-1 cell lysate | ATP loop site |  | IC50 | > 5 µM
N#Cc1cccc(C(=O)Nc2ccc3c(c2)CN(C2CCC(=O)NC2=O)C3=O)c1 (stereo not drawn) | GSPT1/CRBN with cereblon | degrader, HiBiT endpoint | HEK293 GSPT1-HiBiT | 24 h |  | DC50 | > 10 µM
Cc1ccccc1C(=O)Nc1ccc2c(c1)CN(C1CCC(=O)NC1=O)C2=O (stereo not drawn) | GSPT1/CRBN with cereblon | degrader, HiBiT endpoint | HEK293 GSPT1-HiBiT | 24 h |  | DC50 | > 10 µM
CCOc1c([C@H](C)n2nc(C)c3c(N)ncnc32)cc(Cl)c(F)c1[C@@H]1CNC(=O)C1 |  |  | patients, monotherapy | oral, 10 mg once daily, cycle 1 day 15 |  | half-life geometric mean | 9.78 h
O=C(NO)c1cncc(OS(=O)(=O)Oc2ccc(C(F)(F)F)cc2)c1 | HDAC11 |  |  |  |  | Ki | 2.19 µM
COc1ccc2cc(/C=N/n3c(C)nc4ccc(Br)cc4c3=O)ccc2c1 | collagenase | enzyme activity, inhibitor |  | with: casein substrate |  | IC50 | 43.6 ± 3.01 µg/mL
